Measurements of several laboratories.
± marks the error that the study gave.
Cell line: 22Rv1

Cc1n[nH]c(C)c1CCCOc1cc(C(=O)NCCCCC(NC(=O)CN2CCN(CC(=O)[O-])CCN(CC(=O)[O-])CCN(CC(=O)[O-])CC2)C(=O)NCC2CCC(C(=O)NC(Cc3ccc4ccccc4c3)C(=O)NCCCCC(NC(=O)NC(CCC(=O)O)C(=O)O)C(=O)O)CC2)ccc1F.[177Lu+3] (centres unmarked) — cell retention (24 h, efflux; reference: dose): 4.07 ± 0.81%
CCOc1cncc(-c2ccc(NC(=O)C3(c4ccnc(NS(=O)(=O)C5CC5)n4)CCOCC3)nc2)n1 — IC50 (cell growth or viability, ATP luminescence; 72 h): 54 nM
O=C([O-])CN1CCN(CC(=O)[O-])CCN(CC(=O)NCC2CCC(C(=O)NC(Cc3ccc4ccccc4c3)C(=O)NCCCCC(NC(=O)NC(CCC(=O)O)C(=O)O)C(=O)O)CC2)CCN(CC(=O)[O-])CC1.[68Ga+3] (centres unmarked) — maximum uptake (2 h; reference: added dose): 3.51 ± 0.33%
C=CC(=O)N1[C@H](c2ccc3c(c2)OCO3)c2[nH]c3ccccc3c2C[C@H]1C(=O)N1CCOCC1 — increased accessible sites (ATAC-seq; concentration not given, log2FC 1): 903 sites
Cc1ncsc1-c1ccc(C(C)NC(=O)C2CC(O)CN2C(=O)C(NC(=O)CCCCCCCCCCN2CCCC(Nc3ncc(Cl)c(Nc4ccccc4S(=O)(=O)C(C)C)n3)C2)C(C)(C)C)cc1 (centres unmarked) — log2 fold change (RNA-seq, refers to: SP1 mRNA; concentration not given; reference: DMSO): -1.06
CCN(C(=O)c1cc(F)ccc1Oc1nncnc1N1CCC2(C1)CN([C@H](CCCN(C)CCOC)C(C)C)C2)C(C)C — GI50 (cell growth or viability; 72 h): > 10 µM
CCc1cc(N2C(=S)N(c3ccc(C#N)c(C(F)(F)F)c3)C(=O)C2(C)C)ccc1OCCN1CCN(CC(=O)Nc2cccc(NC3CCC(=O)NC3=O)c2)[C@H](C)C1 (some centres unmarked) — GI50 (cell proliferation; 120 h, 10% FBS): 6.3 ± 0.621 µM
CNS(=O)(=O)Nc1nccc(Cc2c(C)c3ccc(Oc4ncccc4F)cc3oc2=O)c1F — IC50 (cell viability; 7 days): > 1000 nM

For quick reference, copied from above:
Cc1n[nH]c(C)c1CCCOc1cc(C(=O)NCCCCC(NC(=O)CN2CCN(CC(=O)[O-])CCN(CC(=O)[O-])CCN(CC(=O)[O-])CC2)C(=O)NCC2CCC(C(=O)NC(Cc3ccc4ccccc4c3)C(=O)NCCCCC(NC(=O)NC(CCC(=O)O)C(=O)O)C(=O)O)CC2)ccc1F.[177Lu+3] (centres unmarked) — cell retention (24 h, efflux; reference: dose): 4.07 ± 0.81%
